Results collected from several papers.
Numbered parts are unrelated; each lists some results of a single study.

Series 1
Target: Interferon regulatory factor 3, full length, phosphomimetic (IRF3, Homo sapiens, UniProt Q14653, residues 1-427, S386D/S396D/S398D/S402D/T404D/S405D)
Method: protein-binding microarray
Form: double-stranded DNA, one strand shown
Medium: in vitro
Tested at: 2540 nM top
Setting: 60-bp whole probe
Added: salmon DNA 0.4 mg/ml
Reference: random background probes
Direction: higher = stronger binding
Measurement: fitted relative affinity
All sequences stand within: GCCTAGCAC … GTCTTGATTCGCTTGACGCTGCTG
Target sequence (chain): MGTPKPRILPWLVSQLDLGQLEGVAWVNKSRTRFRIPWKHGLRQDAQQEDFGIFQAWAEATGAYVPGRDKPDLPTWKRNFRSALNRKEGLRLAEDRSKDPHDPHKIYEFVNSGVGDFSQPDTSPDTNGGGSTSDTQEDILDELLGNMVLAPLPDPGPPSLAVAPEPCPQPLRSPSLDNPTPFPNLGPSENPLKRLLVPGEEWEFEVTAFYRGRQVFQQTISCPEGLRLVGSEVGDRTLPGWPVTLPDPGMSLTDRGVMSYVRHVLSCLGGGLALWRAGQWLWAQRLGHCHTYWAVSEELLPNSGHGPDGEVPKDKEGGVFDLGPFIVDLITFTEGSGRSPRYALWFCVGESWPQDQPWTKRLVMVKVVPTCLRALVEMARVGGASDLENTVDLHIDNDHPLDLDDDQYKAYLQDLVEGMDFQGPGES
TTAGAACTGAGTTTCGGTTAGTGCTAG: 4.25 z-score
TCATGTCTGATTATTTAACTGTGCTAG: 0.265 z-score
TTAGGTCTCGGTCTCGGTTGGTGCTAG: 0.835 z-score
TCAGCTTTCTTTATGTAACTGTGCTAG: 1.44 z-score
GACGAACGGGGGTTTCGAGACGTGCTA: 0.643 z-score
TAACATATTCTCTTCTTGCAGTGCTAG: 1.25 z-score
GACGCTTTCCTACTGCTGACGTGCTAG: 3.04 z-score
GACGATATCAGTTGCGAGACGTGCTAG: 0.68 z-score
TTAGGTATCAACTTTCGGTTAGTGCTA: 2.05 z-score
TTATGACTGCTTATCCTTTAGTGCTAG: 0.0131 z-score
TCAGTCATCGATTTCTTACTGTGCTAG: 0.391 z-score
GACGAAATGAGTTTCGAGACGTGCTAG: 1.68 z-score
TACGGTCTCGGACTGGGGACGTGCTAG: -0.0774 z-score
GACGGTTTCGACACTGGTGACGTGCTA: 3.14 z-score
ATAACACTCTTCTTTTGCTAAGTGCTA: 0.857 z-score
GACGGGCTCGGTATCGGGACGTGCTAG: 0.327 z-score
TTAGGACTGCGTATCCTTTAGTGCTAG: 0.957 z-score
TCCATTTTCTGAATGCTACTGTGCTAG: 2.88 z-score
TTACAGATGTTTTTCATTTTGTGCTAG: 1.17 z-score

Series 2
Target: Fragile X messenger ribonucleoprotein 1, C-terminal low-complexity region (Fmr1, Mus musculus, UniProt P35922)
Method: RNA Bind-n-Seq
Form: RNA
Medium: in vitro
Tested at: 200 nM
Setting: whole 134-nt RNA, ends assumed
Added: 150 mM KCl
Reference: input library
Direction: higher = stronger binding
Measurement: log2 enrichment
All sequences stand within: GGGAGUUCUACAGUCCGACGAUC … UGGAAUUCUCGGGUGUCAAGG
AAGUCCUGUGCUACACAUCGUAUGUACCGAAUCGGUUUUUGGGUUUUUGGUUUUUGGAAAGUAUUAUGUUACGCCGUUCGGAUCUGCACU: -0.76
CUCAAGUCCUGUGCUACACAUCGUAUGUACCGAAUCGGAGGAAAAAGGAAAGGAAAGUAUUAUGUUACGCCGUUCGGAUCUGCACUUCCA: -0.221
UCAAGUCCUGUGCUACACAUCGUAUGUACCGAAUCGGGUUGGUUGGGGUUGGGGAAAGUAUUAUGUUACGCCGUUCGGAUCUGCACUUCC: 1.05
UAGUCACCUACUGCCACCUUCGAAAAACACGGAGAGCACCUACCCAGAGGAGAAGGUAGAUUUGGAGUAAGCCGCCGUCGACAUAAUUCC: 0.152
AUUUUUUGUAUCAAGUCCCUGAAUGGAAGUAUGACGUUGGGUCCCUCUGAAGUUUAAUUCUGAGUUCUCAUUAAAAGAAAUUUGCUUUCA: -1.52
GCAUGAAGUAAAAACAAAUGGAAAUGCUUCGGAUAGUGGCAGGGGUGGGGGUUGCUAAGGAAAGGGUGGGAUGGGAGUGGGUAAAGAGUU: 0.254
UCAAGUCCUGUGCUACACAUCGUAUGUACCGAAUCGGUUUGGGUUUGGUUUGGGAAAGUAUUAUGUUACGCCGUUCGGAUCUGCACUUCC: -0.41
CACAGACAACACGCACCCACACAGACACAGAGGGAAGGGGUUGGGAUGGGGACAGGGUGCACAGCAGGGCGGGGUAGGAACCCAGCCCCU: 1.28
UGUCCUGUGCUUUCACAUUCUUUCUGCAUGGAGAAAGUAAUGUAUGCACAAGUGUGGAGAUUGCCCAGCACCAGCCAAUUUAUUUGAUCA: -1.1

Series 3
Target: RNA binding protein fox-1 homolog 2, RRM domain, GST-SBP tag (RBFOX2, Homo sapiens, UniProt O43251-10, residues 100-194)
Method: RNA Bind-n-Seq
Form: RNA
Medium: in vitro
Tested at: 365 nM
Setting: natural RNA segment, single round, ends assumed
Reference: no-protein control
Direction: higher = stronger binding
Measurement: RBNS enrichment (R)
All sequences stand within: GGGAGUUCUACAGUCCGACGAUC … UGGAAUUCUCGGGUGCCAA
Target sequence (chain): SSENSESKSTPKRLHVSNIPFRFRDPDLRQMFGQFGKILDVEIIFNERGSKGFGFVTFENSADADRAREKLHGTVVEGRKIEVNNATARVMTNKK
CUAUCAGAAUUGCAGAUAGUCAUGUUGGGCUAACAGUCAAUUGGAUAUAUUCCUUUACCUCACAUGACCCCAGCAACUGUGGUGGUAUCUAGAGGUGAAACAGGCAAGUG: 0.713
CCUAAAACAUUUGUCACCAGAACAGUGGGGAAAAGCCUUCCUUUCCAGCCAUGUCUGACAGUGAGCAUGCUUUGGUGUGGUCUUCACUGCUUUUGGUUUUGCUUCUGAUC: 0.521
AGCUAGAAUCGAGCCAGUAAACAGUCUAAGCCAGAAAAAUAAUUUUCAAAUGCUUUACCUGUAUUUUCAUUCCAGUACUUUUUAUGAUUUUUUAAAUAAAAAUUGUUUUC: 0.867
AUUUAGGGGACAAACUCCAUCCAGGUUGACUCUCUCUGGAAUGCGGUAAUAAGAGCUGGCAAGUAAGGCUCAGAGAGAAGCAACCAACUGGAGUUAAUUGCCCAUUUGGG: 2.72
GUCUAUAAACUAGCUUUAGGAUAGUGCCAGACAAACAUAUGAUAUCAUGGUGUAAAAAACACACACAUACACAAAUAUUUGUAACAUAUUGUGACCAAAUGGGCCUCAAA: 0.232
AGCUAGGAGCUGCCGCCCCCCACCCCUCGCUCCCUGUAAUCACGUCCUUAACUUCCUUCUGCCGACCUCCACCUCUGGUGGUUCCUGCCCUGCCUGGACACAGGGAGGCC: 0.603
GUGUGAUUUGGGUGGGCUUUUACAUCUUGCCUACCAUUGCAUGAAACAUUGGGGUUUCUUCAAAAUGUGUGUGUCAUACUUCUUUUGGGAGGGGGGUUGUUUUCUUCUGU: 0.859
CAUUCAUUUCCACCUGGGAAUUUCUGGUGCCAUGCCAGAAAGAAUGAGGAACCUGUAUUCCUCUUCUUCGUGAUAAUAUAAUCUCUAUUUUUUUAGGAAAACAAAAAUGA: 0.405

Series 4
Target: Hepatocyte nuclear factor 3-alpha (Foxa1, Mus musculus, UniProt P35582, residues 1-468, full length assumed)
Method: EMSA with sequencing
Form: double-stranded DNA, one strand shown
Medium: in vitro
Tested at: 10 and 20 nM
Setting: whole designed probe, mean of two concentrations, ends assumed
Reference: negative control set to 0
Direction: higher = stronger binding
Measurement: normalised bound fraction
All sequences stand within: GTGAGCGGTGCCCATTGATGGGGAAC … TTTCACTGGGATCGTGGGGAC
Construct (chain): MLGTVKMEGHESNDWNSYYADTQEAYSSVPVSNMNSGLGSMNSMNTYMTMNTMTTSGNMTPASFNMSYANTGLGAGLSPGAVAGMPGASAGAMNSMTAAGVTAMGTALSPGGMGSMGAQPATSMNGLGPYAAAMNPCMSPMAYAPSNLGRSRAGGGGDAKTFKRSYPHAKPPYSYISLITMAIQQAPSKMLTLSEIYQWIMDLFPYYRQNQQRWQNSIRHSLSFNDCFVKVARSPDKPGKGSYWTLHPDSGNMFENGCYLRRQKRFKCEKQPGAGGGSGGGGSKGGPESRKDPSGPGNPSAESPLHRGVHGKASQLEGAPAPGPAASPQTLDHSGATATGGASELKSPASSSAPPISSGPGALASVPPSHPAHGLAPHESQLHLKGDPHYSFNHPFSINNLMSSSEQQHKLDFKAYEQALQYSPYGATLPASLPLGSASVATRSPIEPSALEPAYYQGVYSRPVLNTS
ATCTCCCCCTTCCCGTCTCCCTTACCAGCTCACCTTCCCGGGTTATTTGCAGATAGGAAAATAAATAAAGCCGGCATTCGTTAACCCTCTTCTGGCGCAAACTGCTGTTTGCTCTGGATGAATCATGGTCCTTTGGCGACGCCAGGCTCCGGGAGAGCAAAGCACCGTGTCAGGGCCATGATCCGGGGTGGCC: 0.331 ratio
AGATGTAAAACAAAATGGATGTAGACAGCCGATTGTAGACGTAAAGCAAAATGGGTGTAGACAGCTAATTGACTCAACCATACTCTGGGCATGAAATTACTCAATGCTACAATGGGCTGAGTCATGCTCGAGGTGCTGGAGAGATTTCTGCCAAGAAAAGAGAGAAAAACCCCTGTCCTCCCACATCTGACGC: -0.0398 ratio
GGATTCTTTCATTATACAAATACATGTTATTTTTGAATTTCAGAAGAAATAATGATATGTCAATCTATTGAGTGCTAACTAAAAGTTCTCTTTGTTTACTTAGCTTTCTCTTAGTTGTAAGAAAGAAAAAGACTTCTTGCATGAAAATAGTACGTTGCGGGAAGAAATTGCCATGCTAAGACTGGAGCTAGAC: 0.489 ratio
GAAATTAGTTCTTTACTACTTAAATAAAATTACATCCTATGATATAAAATGGCATTTGTTTGTTTTTAGTCATTATAACACTGTATACTATTGGTGTTTACTTTGAATAAGAATCATGTGGTACAATAGGGAAGCAATTTCTGCAAATACATTACTTCTTTAATTCAAAACATTGTTTATATACAATTGTGAT: 0.525 ratio
TCCGGTTGGGAGCTTCTTCACTAAATGAGAGAATGTTTGAAATATCAAATAGAGTACAATAGTACATAGCATATCCTAAATGATAGGGTACAAAGTAATCTAGTTAAAAGTAAATGTGTAGCTCTAGGATCAAGCCAAACAAAGCTATTTAAAACCTAAACTTAAAATGAAGGGGATGAATTAGTCTAGATCT: 0.103 ratio

Single results of other studies
PhoQ, residues 284 288 289 292 302 303 SCCLKL — fold induction (PhoP, residues 12 14 15 18 19 MHTVL (Escherichia coli, UniProt P23836); Sort-seq, refers to: YFP reporter; E. coli; PhoQ-PhoP variant library, added: 10 µM Mg2+; reference: high Mg2+ state, higher = stronger signaling): 3.05

Some of these lines once more (series 3):
CCUAAAACAUUUGUCACCAGAACAGUGGGGAAAAGCCUUCCUUUCCAGCCAUGUCUGACAGUGAGCAUGCUUUGGUGUGGUCUUCACUGCUUUUGGUUUUGCUUCUGAUC: 0.521
CAUUCAUUUCCACCUGGGAAUUUCUGGUGCCAUGCCAGAAAGAAUGAGGAACCUGUAUUCCUCUUCUUCGUGAUAAUAUAAUCUCUAUUUUUUUAGGAAAACAAAAAUGA: 0.405
GUGUGAUUUGGGUGGGCUUUUACAUCUUGCCUACCAUUGCAUGAAACAUUGGGGUUUCUUCAAAAUGUGUGUGUCAUACUUCUUUUGGGAGGGGGGUUGUUUUCUUCUGU: 0.859
CUAUCAGAAUUGCAGAUAGUCAUGUUGGGCUAACAGUCAAUUGGAUAUAUUCCUUUACCUCACAUGACCCCAGCAACUGUGGUGGUAUCUAGAGGUGAAACAGGCAAGUG: 0.713
AUUUAGGGGACAAACUCCAUCCAGGUUGACUCUCUCUGGAAUGCGGUAAUAAGAGCUGGCAAGUAAGGCUCAGAGAGAAGCAACCAACUGGAGUUAAUUGCCCAUUUGGG: 2.72
AGCUAGAAUCGAGCCAGUAAACAGUCUAAGCCAGAAAAAUAAUUUUCAAAUGCUUUACCUGUAUUUUCAUUCCAGUACUUUUUAUGAUUUUUUAAAUAAAAAUUGUUUUC: 0.867
